Assay results collected from several papers.
Numbered parts are unrelated; each lists some results of a single study.

Set 1
Target: Interferon regulatory factor 5, full length, phosphomimetic (IRF5, Homo sapiens, UniProt Q13568-2, residues 1-514, K96S/S451D/S453D/S456D/S462D)
Technique: protein-binding microarray
Molecule type: double-stranded DNA, one strand shown
Matrix: in vitro
Concentration: 250 nM
Notes: 60-bp whole probe
Added: salmon DNA 0.4 mg/ml
Baseline: random background probes
Direction: higher = stronger binding
Measurement: log fluorescence
Shared flanks, not repeated: GCCTAGCAC … GTCTTGATTCGCTTGACGCTGCTG
GAGTTCCTCTCTAGGCACTGGTGCTAG: -0.101 z-score
TCAGTTTTAGGTCCCTTACTGTGCTAG: 0.1 z-score
TCATTTTTGCAAGCTAAAACTGTGCTA: 0.721 z-score
TTCGGTTTCGGGTTTCGGTTAGTGCTA: 9.85 z-score
GACGGTTTTGGTTTCGGGACGTGCTAG: 7.08 z-score
GACGATCACAGTTTCGAGACGTGCTAG: 4.16 z-score
GACGGGTTCGGACTGGGGACGTGCTAG: -0.506 z-score
TTAGGTTTCGGGTATCAGTTAGTGCTA: 9.32 z-score
TTAGGTCTCGGTCTGGGTTAGTGCTAG: 0.436 z-score
TAGTTTATACTCTAGATGATGTGCTAG: 0.116 z-score
TTAGGTATCGACTGTCGGTTAGTGCTA: 3.39 z-score
GACGGTATCGGAATCGGGACGTGCTAG: 2.02 z-score
TTAGGTTTCCTTCACCTTTAGTGCTAG: 1.01 z-score
ACAAAGATTTTTATCAAATGGTGCTAG: 0.461 z-score
TTAGATTCGAGTTTCGATTAGTGCTAG: 9.08 z-score

Set 2
Target: Centromere-binding protein 1, full length, N-terminal tag (CBF1, Saccharomyces cerevisiae, UniProt P17106, residues 1-351)
Sequence of UniProt P17106 (whole entry, looked up): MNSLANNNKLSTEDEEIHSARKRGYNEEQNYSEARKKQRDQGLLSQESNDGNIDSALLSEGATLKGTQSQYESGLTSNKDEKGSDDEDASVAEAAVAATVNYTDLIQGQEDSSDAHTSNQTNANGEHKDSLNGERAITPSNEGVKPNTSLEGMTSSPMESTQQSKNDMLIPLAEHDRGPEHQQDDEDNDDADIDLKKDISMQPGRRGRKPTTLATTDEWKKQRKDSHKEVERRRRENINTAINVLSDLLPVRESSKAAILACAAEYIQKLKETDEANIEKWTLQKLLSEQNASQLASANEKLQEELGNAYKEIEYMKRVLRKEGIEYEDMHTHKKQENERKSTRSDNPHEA
Technique: protein-binding microarray
Molecule type: double-stranded DNA, one strand shown
Matrix: in vitro
Concentration: 0.8 µM
Notes: whole 60-bp probe, no competitor
Direction: higher = stronger binding
Measurement: fluorescence intensity
GAATCTAAGTTACCCCTCATGACTTCCCAAGTGTAGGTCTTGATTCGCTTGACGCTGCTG: 592 a.u.
CTATGATGAGGCGGAAACGTGCAAGATCCTAAATTCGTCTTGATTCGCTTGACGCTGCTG: 610 a.u.
CCTAACTACTATAATGTCGTGATATAGCTTCGTACAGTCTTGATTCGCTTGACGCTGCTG: 626 a.u.
GAAAAGATCAAATGTTACGTGGTGTTGAAGAAATAGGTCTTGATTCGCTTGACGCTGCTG: 585 a.u.
GAATATTATGGTGAGCAGGTGAAATCCTAGCTGTAGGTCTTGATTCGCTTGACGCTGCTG: 542 a.u.
GAAAAGACGACGTTTTTCGTGATAATAAGAAGTTAGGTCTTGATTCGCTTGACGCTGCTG: 518 a.u.
GAACTGATATATATACACGTGAAGCAAAAAAGGTAGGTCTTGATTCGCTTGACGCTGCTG: 3950 a.u.
CTACAGGCCATTCGCCACGTTTTAAAACGAAGTTTCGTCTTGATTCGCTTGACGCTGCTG: 522 a.u.
GAATTTTATTATGCACGTGTGATAGCATTATCTTAGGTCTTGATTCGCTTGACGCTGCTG: 9350 a.u.
CTAGATAATGTCTCACTCGTGCAGTCACATCTCTTCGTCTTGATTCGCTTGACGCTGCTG: 571 a.u.
CTACCACCCCCGCATCACACCCAGTCTTCTAGCTTCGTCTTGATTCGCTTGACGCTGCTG: 517 a.u.
CTATACAGCACAAATCACGCGTATTTTCAAGCATTCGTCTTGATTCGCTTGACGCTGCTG: 812 a.u.
GAAAGTACTAAAAGTCACGAATTTAAAAATGCATAGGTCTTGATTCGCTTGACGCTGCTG: 616 a.u.
CTATACATATTTGGTTGCGTGGTATATAGAATCTTCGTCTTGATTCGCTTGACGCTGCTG: 573 a.u.

Set 3
Target: Histone acetyltransferase KAT6A, both winged helices, GST fusion (KAT6A, Homo sapiens, UniProt Q92794, residues 1-181)
Technique: protein binding microarray
Molecule type: double-stranded DNA, one strand shown
Matrix: in vitro
Concentration: not given
Notes: 8-mer, flanks averaged, mean of 2 arrays, mostly near background
Baseline: not given
Direction: higher = stronger binding
Measurement: E-score
Residues (chain): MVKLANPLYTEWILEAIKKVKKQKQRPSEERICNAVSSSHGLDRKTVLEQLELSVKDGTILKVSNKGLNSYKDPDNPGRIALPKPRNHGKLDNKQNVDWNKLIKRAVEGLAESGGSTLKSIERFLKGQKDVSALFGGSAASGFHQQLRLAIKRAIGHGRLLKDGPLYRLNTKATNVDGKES
GCGGACGA: 0.245
AATCCCTG: -0.227
AGCTTTAG: -0.0932
AAGTATTG: -0.198
AATATGGA: -0.0742
AGAGTGCA: -0.15
AATTTAGT: -0.112
CTGGAGCA: -0.114
CCATCGAC: -0.128
CGCTTAAC: 0.195
CGGTGAGA: 0.0189

Single results of other studies
PhoQ, residues 284 288 289 292 302 303 TYGVAM
fold induction (PhoP, residues 12 14 15 18 19 NMSFL (Escherichia coli, UniProt P23836); Sort-seq, refers to: YFP reporter; E. coli; PhoQ-PhoP variant library, added: 10 µM Mg2+; baseline: high Mg2+ state, higher = stronger signaling): 4.15

For quick reference, copied from above (set 3):
AATATGGA: -0.0742
GCGGACGA: 0.245
AGAGTGCA: -0.15
